Measured values gathered from unrelated publications.
Compare with care: the assays were run in different laboratories. ± marks the error that the study gave.
UniProt P16152, sequence (whole entry, looked up): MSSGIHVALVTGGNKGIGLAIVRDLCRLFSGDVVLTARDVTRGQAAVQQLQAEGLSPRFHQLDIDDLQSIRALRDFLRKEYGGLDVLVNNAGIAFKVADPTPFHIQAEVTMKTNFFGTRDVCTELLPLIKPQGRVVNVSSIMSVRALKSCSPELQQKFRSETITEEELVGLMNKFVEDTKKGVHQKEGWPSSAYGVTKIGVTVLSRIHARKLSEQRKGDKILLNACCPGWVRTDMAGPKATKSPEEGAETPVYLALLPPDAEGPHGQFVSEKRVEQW

For `O=C(c1ccc(F)c(F)c1Nc1ccc(I)cc1F)N1CC(O)([C@@H]2CCCCN2)C1`, the adverse events was 100% (patients aged sample A to sample B years; oral, dose not given).
`O=S(=O)(Nc1ccccc1)c1ccc(NC(=S)Nc2ccccc2)cc1`: “relative organ weight” 5.22% (mouse, male, liver; oral, 5 mg/kg daily, 14 days; reference: body weight).
For `[2H]C([2H])([18F])[C@]([2H])(N)C(=O)O`, the tissue uptake was 1.49 ± 0.33 %ID/cc (PET; athymic nude mice, U-87 MG, tumor; dose not given, 60 min post-injection).
`CC(=O)N[C@H]1CC[C@H](NC(=O)CN2CCN(c3nncc(-c4ccc(C)cc4)n3)CC2)CC1` gave an NOAEL of 30 mg/kg/day (male monkeys).
`COc1ccc(CCC2CCCC(CCc3ccc(OC)cc3)N2C[C@@H](O)CO)cc1.Cl` (stereo in doubt): “action potential amplitude change” -0.1 ± 3.6 mV (rabbit Purkinje fibres; 0.1 µM, cycle length 1 s; reference: baseline).
Under “incidence of Stomatitis”, `COc1ncnn2ccc(-c3cnc4nc(C)n(Cc5nnc([C@@H](C)F)o5)c4c3)c12` is recorded as 21.4% (human patients; oral, dose not given, all-grade adverse drug reaction).
`CC(C)Nc1ccnc(Nc2cccc(-c3cccnc3)c2)n1` has a blood chemistry of 0.3 mg/dL (measured: Creatinine; mouse, blood; intraperitoneal, 3 mg/kg).
`COc1cc2c(Oc3ccc4[nH]c(C)cc4c3F)ccnc2cc1OCC1(N)CC1`: “grade 1 or 2 Hyperuricemia” 18.2% (paediatric recurrent refractory sarcoma; 12 mg).
`C[C@H]1CN(c2n[nH]c3nc(N[C@H]4CC[C@H](NS(=O)(=O)CCC(F)(F)F)CC4)ncc23)CCO1` has a Hill slope of 1 (Carbonyl reductase [NADPH] 1 (CBR1, Homo sapiens, UniProt P16152); competitor, Kinobeads competition; human cell extract).
`CO[C@H]1C[C@@H]2CC[C@@H](C)[C@@](O)(O2)C(=O)C(=O)N2CCCC[C@H]2C(=O)O[C@H]([C@H](C)C[C@@H]2CC[C@@H](OC(=O)NCCOCCOCCOCCOCCOCCOCCOCCOCCC(=O)N3CCc4cc(Cn5nc(-c6ccc7oc(N)nc7c6)c6c(N)ncnc65)ccc4C3)[C@H](OC)C2)C[C@@H](O)[C@H](C)/C=C(\C)[C@@H](O)[C@@H](OC)C(=O)[C@H](C)C[C@H](C)/C=C/C=C/C=C/1C` — result for “deaths due to TRAEs”: 0% (phase 1 dose escalation; advanced solid tumour patients; intravenous, 10 mg weekly, grade ≥3).
Under “adverse event incidence”, `CN1CC[C@@H](c2c(O)cc(O)c3c(=O)cc(-c4ccc(C(F)(F)F)cc4Cl)oc23)[C@@H]1CO` is recorded as 17.5% (measured: Anemia; relapsed or refractory haematological malignancies; oral, dose not given, grade 3 to 4).
For `C[C@]1(CO)Cc2ncn(-c3ccc(C#N)c(Cl)c3)c2C(=O)O1`, the half-life was 4.5 h (human, plasma; 20 mg, first dose fasted).

A few entries again:
`CO[C@H]1C[C@@H]2CC[C@@H](C)[C@@](O)(O2)C(=O)C(=O)N2CCCC[C@H]2C(=O)O[C@H]([C@H](C)C[C@@H]2CC[C@@H](OC(=O)NCCOCCOCCOCCOCCOCCOCCOCCOCCC(=O)N3CCc4cc(Cn5nc(-c6ccc7oc(N)nc7c6)c6c(N)ncnc65)ccc4C3)[C@H](OC)C2)C[C@@H](O)[C@H](C)/C=C(\C)[C@@H](O)[C@@H](OC)C(=O)[C@H](C)C[C@H](C)/C=C/C=C/C=C/1C` — result for “deaths due to TRAEs”: 0% (phase 1 dose escalation; advanced solid tumour patients; intravenous, 10 mg weekly, grade ≥3).
